Results gathered from unrelated publications.
Compare with care: the assays were run in different laboratories. Numbers after ± are the reported error.
Cell line: HepG2

CCOC1=CC(=O)c2cc3c(cc2C1=O)CCCC3(C)C — CC50 (cytotoxicity, Alamar Blue; 72 h): 199 ± 14 µM
C=CCOC(=O)C1C(C=O)=Cc2cc3c(cc2C1c1cc(OC)c(OC)c(OC)c1)OCO3 (stereo not shown) — CC50 (cell growth or viability, resazurin; 48 h): > 100 µM
CNC(=O)c1ccc(-c2cnn3ccc(C(=O)N(c4ccc(C#N)cn4)C(C)(C)C)cc23)cc1 — CC50 (96 h): 40 ± 17.3 µM
COC1=CC(=O)c2cc3c(cc2C1=O)CCCC3(C)C — CC50 (cytotoxicity, Alamar Blue; 72 h): 29.7 ± 1.3 µM
NC(=O)C(CC(=O)c1cccc(Oc2ccccc2)c1)c1ccc(F)cc1 (stereo not shown) — CC50: > 300 µg/mL
COc1cc([C@@H]2c3cc4c(cc3C=C(C=O)[C@H]2C(=O)N2CCCC2)OCO4)cc(OC)c1OC — CC50 (cell growth or viability, resazurin; 48 h): 27.2 µM
CC(C)=CCCC1=CCC2C(=O)c3ccccc3C(=O)C2C1 (stereo not shown) — CC50 (cytotoxicity, Alamar Blue; 72 h): 82.9 ± 5.3 µM
COC(=O)c1[nH]c(C(=O)OC)c2c1-c1c[nH]c3ccc(Cl)c(c13)C21C=Nc2ccc(Cl)cc21 (racemic) — CC50 (cell growth or viability, ATP luminescence; 72 h): 10 µM
O=C1Nc2ccc(Cl)cc2C1=Cc1ccc(-c2cccc(C(=O)NCC3CCNCC3)c2)o1 (mixture of isomers) — CC50 (cell viability, MTT; 24 h): 24.5 µM
Cc1ccc(NC(=O)N2CCCN3CCC(c4ccc(C#Cc5cccnc5)cc4)C3C2)cc1 (stereo not shown) — CC50 (cell growth or viability, ATP luminescence; 72 h): 6.88 µM
CCNC1=C(Cl)C(=O)c2cc3c(cc2C1=O)CCCC3(C)C — CC50 (cytotoxicity, Alamar Blue; 72 h): > 200 µM
OC[C@H]1O[C@@H](n2cnc3c(O)ncnc32)[C@H](F)[C@@H]1O — CC50 (sulforhodamine B; 11 days, galactose medium): > 250 µM
CC1(C)CCCc2cc3c(cc21)C(=O)C=CC3=O — CC50 (cytotoxicity, Alamar Blue; 72 h): 13.4 ± 1.3 µM
NCC1OC(OC2C(N)CC(N)C(OC3OC(CO)C(O)C(N)C3O)C2OCCCCCCCCn2cc(CNc3nc(NCc4cn(CCCCCCCCOC5C(OC6OC(CN)C(O)CC6N)C(N)CC(N)C5OC5OC(CO)C(O)C(N)C5O)nn4)nc(NCc4cn(CCCCCCCCOC5C(OC6OC(CN)C(O)CC6N)C(N)CC(N)C5OC5OC(CO)C(O)C(N)C5O)nn4)n3)nn2)C(N)CC1O (stereo not shown) — CC50 (cell growth or viability, resazurin; 48 h): 72.3 µM
COc1ccc(-c2ccc3oc(-c4ccc(OC)cc4)c(C#CC4(O)CCCCC4)c3c2)cc1 — CC50: > 100 µM
COc1cc(C2c3cc4c(cc3C=C(C=O)C2C(=O)OCC=Cc2ccccc2)OCO4)cc(OC)c1OC (stereo not shown) — CC50 (cell growth or viability, resazurin; 48 h): > 100 µM
NC(=O)C(CC(=O)c1cccc(Oc2ccccc2)c1)c1ccc(Cl)cc1 (stereo not shown) — CC50: > 300 µg/mL
Nc1ccn([C@@H]2O[C@H](CO)[C@@H](O)[C@H]2F)c(=O)n1 — CC50 (sulforhodamine B; 11 days, galactose medium): > 250 µM
Cc1c(-c2ccc(Cc3ccc(OC(F)(F)F)cc3)cc2)[nH]c2cccc(F)c2c1=O — CC50 (cell growth or viability, CCK-8; 24 h): > 10 µM
COc1ccc(-c2oc3ccc(-c4cc(OC)c(OC)c(OC)c4)cc3c2C#CC2(O)CCCCC2)cc1 — CC50: > 31.6 µM
CN(C(=O)c1ccn2ncc(-c3ccc(C(F)(F)F)cc3)c2c1)c1ccc(C#N)cn1 — CC50 (96 h): > 50 µM
Nc1ncnc2c1ncn2[C@@H]1O[C@H](CO)[C@@H](O)[C@H]1F — CC50 (sulforhodamine B; 11 days, galactose medium): 108 µM
COc1ccc(NC(=O)N2CCCN3CCC(c4ccc(C#CC5CCCC5)cc4)C3C2)cc1 (stereo not shown) — CC50 (cell growth or viability, ATP luminescence; 72 h): 3.67 µM
CC(=O)Oc1ccc(OC(C)=O)c2cc3c(cc12)CCCC3(C)C — CC50 (cytotoxicity, Alamar Blue; 72 h): 5.94 ± 0.31 µM
CCOC(=O)c1cn(-c2nc(C)n[nH]2)nn1 — CC50 (cell growth or viability, MTT; 72 h): ≥ 500 µM
COC(=O)C1C(C=NNCC(F)(F)F)=Cc2cc3c(cc2C1c1cc(OC)c(OC)c(OC)c1)OCO3 (stereo not shown) — CC50 (cell growth or viability, resazurin; 48 h): > 100 µM
COc1ccc(NC(=O)N2CCCN3CCC(c4ccc(C#Cc5ccccc5)cc4)C3C2)cc1 (stereo not shown) — CC50 (cell growth or viability, ATP luminescence; 72 h): 8.48 µM
CNC(=O)c1ccc(-c2cnn3ccc(C(=O)N(C)c4ccc(C#N)cn4)cc23)cc1 — CC50 (96 h): 21.2 ± 10.6 µM
COC(=O)c1[nH]c(C(=O)OC)c2c1-c1c[nH]c3ccc(Cl)c(c13)C21CN(C)c2ccc(Cl)cc21 (racemic) — CC50 (cell growth or viability, ATP luminescence; 72 h): > 10 µM
O=c1ccn([C@@H]2O[C@H](CO)[C@@H](O)[C@H]2F)c(=O)[nH]1 — CC50 (sulforhodamine B; 11 days, galactose medium): > 250 µM
CNC(=O)c1ccc(-c2cnn3ccc(C(=O)Nc4ccc(C#N)cn4)cc23)cc1 — CC50 (96 h): > 50 µM

A few entries again:
OC[C@H]1O[C@@H](n2cnc3c(O)ncnc32)[C@H](F)[C@@H]1O — CC50 (sulforhodamine B; 11 days, galactose medium): > 250 µM
CNC(=O)c1ccc(-c2cnn3ccc(C(=O)N(C)c4ccc(C#N)cn4)cc23)cc1 — CC50 (96 h): 21.2 ± 10.6 µM
COc1ccc(-c2ccc3oc(-c4ccc(OC)cc4)c(C#CC4(O)CCCCC4)c3c2)cc1 — CC50: > 100 µM
